Measured values from different studies.
Compare with care: the assays were run in different laboratories. ± marks the error that the study gave.
OPRM1: Mu-type opioid receptor (OPRM1, Homo sapiens, UniProt P35372)

Sequences of proteins named here, by UniProt entry; tags and fusion partners are left off.
UniProt P35372, whole entry: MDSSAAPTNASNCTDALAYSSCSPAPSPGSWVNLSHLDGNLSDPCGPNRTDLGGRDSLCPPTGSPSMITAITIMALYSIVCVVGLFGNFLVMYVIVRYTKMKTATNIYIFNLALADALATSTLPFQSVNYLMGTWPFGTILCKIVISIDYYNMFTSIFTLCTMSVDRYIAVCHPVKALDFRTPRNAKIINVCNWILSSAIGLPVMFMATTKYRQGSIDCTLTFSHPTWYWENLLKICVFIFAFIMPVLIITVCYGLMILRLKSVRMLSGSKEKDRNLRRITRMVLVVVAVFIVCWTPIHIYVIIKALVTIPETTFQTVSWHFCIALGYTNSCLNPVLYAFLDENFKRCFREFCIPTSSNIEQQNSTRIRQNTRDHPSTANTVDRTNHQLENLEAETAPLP
UniProt Q99683, whole entry: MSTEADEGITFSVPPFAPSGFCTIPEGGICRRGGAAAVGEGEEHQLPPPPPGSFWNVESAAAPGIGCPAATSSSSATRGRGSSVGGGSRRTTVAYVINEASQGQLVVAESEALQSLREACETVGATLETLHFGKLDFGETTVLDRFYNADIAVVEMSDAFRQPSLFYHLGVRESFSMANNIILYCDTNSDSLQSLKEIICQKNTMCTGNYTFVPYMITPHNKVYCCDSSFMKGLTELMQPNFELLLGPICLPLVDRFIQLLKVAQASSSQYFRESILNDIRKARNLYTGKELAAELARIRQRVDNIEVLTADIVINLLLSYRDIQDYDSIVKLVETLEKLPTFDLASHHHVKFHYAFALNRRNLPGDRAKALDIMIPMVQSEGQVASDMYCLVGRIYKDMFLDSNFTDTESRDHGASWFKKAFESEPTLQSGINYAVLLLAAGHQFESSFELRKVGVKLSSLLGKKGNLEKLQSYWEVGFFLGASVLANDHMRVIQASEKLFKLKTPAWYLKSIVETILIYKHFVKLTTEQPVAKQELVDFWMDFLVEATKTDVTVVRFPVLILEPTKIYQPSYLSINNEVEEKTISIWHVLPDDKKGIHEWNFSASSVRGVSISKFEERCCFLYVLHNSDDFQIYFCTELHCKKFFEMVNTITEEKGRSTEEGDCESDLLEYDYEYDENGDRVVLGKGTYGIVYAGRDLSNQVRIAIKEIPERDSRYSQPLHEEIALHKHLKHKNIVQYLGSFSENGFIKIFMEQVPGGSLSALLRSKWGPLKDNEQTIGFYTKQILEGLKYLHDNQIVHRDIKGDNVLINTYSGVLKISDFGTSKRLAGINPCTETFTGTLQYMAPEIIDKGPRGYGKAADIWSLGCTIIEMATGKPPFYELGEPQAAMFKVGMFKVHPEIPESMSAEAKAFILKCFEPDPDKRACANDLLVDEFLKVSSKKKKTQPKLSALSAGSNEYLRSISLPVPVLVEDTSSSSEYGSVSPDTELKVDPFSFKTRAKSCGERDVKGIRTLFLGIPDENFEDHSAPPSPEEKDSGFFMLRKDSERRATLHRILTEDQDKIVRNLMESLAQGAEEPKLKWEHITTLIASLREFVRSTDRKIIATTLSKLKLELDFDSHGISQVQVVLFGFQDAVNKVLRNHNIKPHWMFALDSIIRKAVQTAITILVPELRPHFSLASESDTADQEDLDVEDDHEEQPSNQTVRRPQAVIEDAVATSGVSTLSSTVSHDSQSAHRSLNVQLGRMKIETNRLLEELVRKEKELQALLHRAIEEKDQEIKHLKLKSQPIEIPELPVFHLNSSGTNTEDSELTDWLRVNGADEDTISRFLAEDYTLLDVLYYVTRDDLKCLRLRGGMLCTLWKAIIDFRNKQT
UniProt P42685, whole entry: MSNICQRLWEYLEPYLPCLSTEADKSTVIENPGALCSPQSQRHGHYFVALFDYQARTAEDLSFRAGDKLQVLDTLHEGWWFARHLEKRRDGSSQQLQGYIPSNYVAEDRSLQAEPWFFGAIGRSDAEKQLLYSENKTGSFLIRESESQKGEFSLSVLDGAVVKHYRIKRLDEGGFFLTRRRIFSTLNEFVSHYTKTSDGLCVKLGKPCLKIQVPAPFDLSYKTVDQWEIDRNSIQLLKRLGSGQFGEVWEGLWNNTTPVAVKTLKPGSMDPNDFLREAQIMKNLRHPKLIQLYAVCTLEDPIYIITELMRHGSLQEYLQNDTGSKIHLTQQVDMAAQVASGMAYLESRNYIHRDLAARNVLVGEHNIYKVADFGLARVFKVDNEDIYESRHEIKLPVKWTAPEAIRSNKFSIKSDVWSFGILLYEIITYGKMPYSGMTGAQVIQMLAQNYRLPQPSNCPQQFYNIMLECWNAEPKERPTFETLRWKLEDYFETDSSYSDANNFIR

SMILES	target	test	test system	setting	how to read	quantity	result
CN1CC[C@]2(c3cccc(O)c3)C[C@H]3CCCC[C@@H]3[C@H]1C2 (relative stereo)	OPRM1	binding	CHO cells expressing human MOR	added: [3H]DAMGO		Ki	0.9 ± 0.04 nM
CO[C@]12CC[C@@]3(C[C@@H]1[C@](C)(O)c1ccccc1)[C@H]1Cc4ccc(O)c5c4[C@@]3(CCN1CC1CC1)[C@H]2O5	OPRM1	G-protein activation, antagonist		added: DAMGO		Kb	0.47 nM
N=C(N)NCC(=O)NCC1(Cc2cccc3ccccc23)CCN(Cc2ccccc2)CC1	OPRM1	binding	HEK293 membranes	added: [3H]DAMGO		Ki	354 ± 90 nM
CO[C@]12CC[C@@]3(C[C@@H]1[C@@](C)(O)C(C)(C)C)[C@H]1Cc4c(Cl)cc(O)c5c4[C@@]3(CCN1CC1CC1)[C@H]2O5	OPRM1	radioligand binding	CHO	added: [3H]DAMGO		Ki	13.2 ± 0.97 nM
CC[C@](O)([C@H]1C[C@@]23CC[C@]1(OC)[C@@H]1Oc4c(O)ccc5c4[C@@]12CCN(CC1CC1)[C@@H]3C5)C(C)(C)C	OPRM1	G-protein activation, agonist			baseline: DAMGO	EC50	50.2 ± 6.6 nM
CCCN1CCN(c2ccc3c(c2)C2CC3CCN2C(=O)OCc2ccccc2)CC1 (centres unmarked)	OPRM1	binding, radioligand binding				Ki	8800 nM
N=C(N)NCC(=O)NCC1(Cc2ccccc2)CCN(Cc2ccccc2)CC1	OPRM1	binding	HEK293 membranes	added: [3H]DAMGO		Ki	201 ± 10 nM
CCN1CCN(Cc2ccc(NC(=O)c3ccc(C)c(/C=C/c4cnc5[nH]ccc5c4OC)c3)cc2C(F)(F)F)CC1	Mitogen-activated protein kinase kinase kinase 5, with CDC37 (MAP3K5, Homo sapiens, UniProt Q99683)	inhibitor, cell-based kinome screen	human cells	5 µM	baseline: vehicle	log2 fold change	-1.03
COCO[C@H]1C[C@@H](C(=O)OC)[C@]2(C)CC[C@H]3C(=O)O[C@H](c4ccoc4)C[C@]3(C)[C@H]2C1=O	OPRM1	[3H]DAMGO displacement	CHO cells expressing OPRM1		lower is stronger binding	Ki	390 ± 20 nM
CO[C@]12CC[C@@]3(C[C@@H]1[C@@](C)(O)c1ccc(C(C)(C)C)cc1)[C@H]1Cc4ccc(O)c5c4[C@@]3(CCN1CC1CC1)[C@H]2O5	OPRM1	radioligand binding	CHO	added: [3H]DAMGO		Ki	5.56 ± 1.3 nM
O=C1CC2CC(c3cccc(O)c3)(CCN2CCc2ccccc2)C1 (centres unmarked)	OPRM1	binding	CHO cells expressing human MOR	added: [3H]DAMGO		Ki	40 ± 2.8 nM
CO[C@]12C=C[C@@]3(C[C@@H]1[C@H](O)c1ccccc1)[C@H]1Cc4ccc(O)c5c4[C@@]3(CCN1CC1CC1)[C@H]2O5	OPRM1	binding, radioligand displacement	CHO	added: [3H]DAMGO		Ki	4 ± 0.63 nM
CO[C@]12CC[C@@]3(C[C@@H]1[C@@](C)(O)C(C)(C)C)[C@H]1Cc4cc(Br)c(O)c5c4[C@@]3(CCN1CC1CC1)[C@H]2O5	OPRM1	radioligand binding	CHO	added: [3H]DAMGO		Ki	10.5 ± 3.86 nM
CC#C/C(=N\OC[C@H]1COCCN1)c1ccc2ncnc(Nc3ccc(OCc4cccc(F)c4)c(Cl)c3)c2c1	FRK (Homo sapiens, UniProt P42685)	kinase activity		10 µM		inhibition	9.2%

Some of these lines once more:
SMILES	target	test	test system	setting	how to read	quantity	result
CN1CC[C@]2(c3cccc(O)c3)C[C@H]3CCCC[C@@H]3[C@H]1C2 (relative stereo)	OPRM1	binding	CHO cells expressing human MOR	added: [3H]DAMGO		Ki	0.9 ± 0.04 nM
